Experimental data from different studies.
Parts stem from different laboratories: compare values within a part only.

Block 1
Target: Ras GTPase-activating protein-binding protein 1, full length (G3BP1, Homo sapiens, UniProt Q13283)
Chain of UniProt Q13283 (whole entry, looked up): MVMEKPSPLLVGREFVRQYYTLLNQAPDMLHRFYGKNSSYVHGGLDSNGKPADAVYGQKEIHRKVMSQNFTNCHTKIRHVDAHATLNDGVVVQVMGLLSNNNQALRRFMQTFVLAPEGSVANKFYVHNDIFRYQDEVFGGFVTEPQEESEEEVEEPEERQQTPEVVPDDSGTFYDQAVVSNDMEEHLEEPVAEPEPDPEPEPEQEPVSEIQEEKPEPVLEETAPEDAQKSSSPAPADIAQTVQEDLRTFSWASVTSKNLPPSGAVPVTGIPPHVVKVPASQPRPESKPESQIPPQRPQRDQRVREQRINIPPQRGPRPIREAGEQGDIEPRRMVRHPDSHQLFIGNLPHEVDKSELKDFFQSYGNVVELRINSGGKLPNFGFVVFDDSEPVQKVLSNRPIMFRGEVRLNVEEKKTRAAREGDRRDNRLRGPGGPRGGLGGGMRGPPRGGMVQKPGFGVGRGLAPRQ
Method: RNA Bind-n-Seq
Form: RNA
Medium: in vitro
Tested at: 200 nM
Notes: whole 134-nt RNA, ends assumed
Together with: 150 mM KCl
Relative to: input library
Reading: higher = stronger binding
For `GGGAGUUCUACAGUCCGACGAUCCAAGUCCUGUGCUACACAUCGUAUGUACCGAAUCGGUUUUGGGUUUUGGUUUUGGAAAGUAUUAUGUUACGCCGUUCGGAUCUGCACUUCUGGAAUUCUCGGGUGUCAAGG`, the log2 enrichment was -1.04.
With `GGGAGUUCUACAGUCCGACGAUCCCUGUGCUACACAUCGUAUGUACCGAAUCGGGAAAAAAAGGGAAAAAAAGGGAAAAAAAGGAAAGUAUUAUGUUACGCCGUUCGGAUCUGUGGAAUUCUCGGGUGUCAAGG` the log2 enrichment was -0.868.
The log2 enrichment of `GGGAGUUCUACAGUCCGACGAUCUCCUCAAGUCCUGUGCUACACAUCGUAUGUACCGAAUCGGGAGGAGGGAGGAAAGUAUUAUGUUACGCCGUUCGGAUCUGCACUUCCAGCUGGAAUUCUCGGGUGUCAAGG` is reported as -0.239.
The log2 enrichment of `GGGAGUUCUACAGUCCGACGAUCACCAUGCAGUUGGGCAUCUUUGGGAAGUGGGGCAAGGGGGGGAUAGGGAGGGGGGUAACACUUUGGGAACAGGUGGUCCCAGGUCGUUUCUGGAAUUCUCGGGUGUCAAGG` is reported as 1.16.

Block 2
Target: TAR DNA-binding protein 43, full length, His tag (TARDBP, Homo sapiens, UniProt Q13148, residues 1-414)
Method: RNA Bind-n-Seq
Form: RNA
Medium: in vitro
Tested at: 20 nM
Notes: 6-mer, flanks averaged, single round
Together with: 150 mM KCl
Relative to: input library
Reading: higher = stronger binding
For `AAGCGC`, “6-mer enrichment (R)” read 0.782.
Under “6-mer enrichment (R)”, `UGGUUG` is recorded as 1.25.
`UCCAAG` — result for “6-mer enrichment (R)”: 0.709.
`UCCCCG` — result for “6-mer enrichment (R)”: 0.676.

Block 3
Target: Histone acetyltransferase KAT6A, winged helix 2, GST fusion (KAT6A, Homo sapiens, UniProt Q92794, residues 85-181)
Method: protein binding microarray
Form: double-stranded DNA, one strand shown
Medium: in vitro
Tested at: not given
Notes: 8-mer, flanks averaged, mean of 2 arrays, mostly near background
Relative to: not given
Reading: higher = stronger binding
Target sequence (chain): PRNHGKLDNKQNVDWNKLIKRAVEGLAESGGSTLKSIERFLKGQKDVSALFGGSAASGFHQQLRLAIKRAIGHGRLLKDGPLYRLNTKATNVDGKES
`CGCATCTC` gave an E-score of 0.155.
The E-score of `TAACGGCA` is reported as -0.0483.
The E-score of `GCATTGCC` is reported as -0.0107.
With `CGGCCACC` the E-score was 0.169.
For `GGCCTCTA`, the E-score was -0.175.

Single results of other studies
With `PhoQ, residues 284 288 289 292 302 303 NLAAMI` the fold induction was 5.45 (PhoP, residues 12 14 15 18 19 SQCLL (Escherichia coli, UniProt P23836); Sort-seq, item: YFP reporter; E. coli; PhoQ-PhoP variant library, together with: 10 µM Mg2+; relative to: high Mg2+ state, higher = stronger signaling).

Some of these lines once more (block 3):
The E-score of `GCATTGCC` is reported as -0.0107.
With `CGGCCACC` the E-score was 0.169.
